# Measurements of several laboratories.
# Lines come from different studies, so protocols differ. Numbers after ± are the reported error.
Structure (SMILES),organism,test,system,setting,how to read,measurement,result
COc1ccc2nc(C)cc(OCC(=O)Nc3cc(C)cc(C)c3)c2c1,Mycobacterium tuberculosis variant bovis BCG,microbial growth,BCG,,,MIC,0.5 µM
Cc1cccc(F)c1NC(=O)CN1CCCC2=CC3CC(CN4CCCCC34)C21 (stereo not shown),vesicular stomatitis virus,pseudovirus entry,,VSV G pseudovirus,,EC50,> 267 µM
Cc1cccc(-c2nc(Nc3ccncn3)c3c(C)csc3n2)n1,Mycobacterium tuberculosis variant bovis BCG,microbial growth,BCG,,,MIC,0.3 µM
CCN(CC)CCOc1ccc(C(=C(C)c2ccc(Cl)cc2)c2ccc(Cl)cc2)cc1,influenza A virus H1N1,"cytopathic effect, visual CPE",MDCK,,,EC50,> 0.71 µg/mL
CCc1ccc([C@@H]2C[C@H](C(F)(F)F)n3ncc(C(=O)NCc4ccc(OC)cc4)c3N2)cc1,Mycobacterium tuberculosis variant bovis BCG,microbial growth,BCG,,,MIC,2.7 µM
CC(C)C[C@H](NC(=O)[C@H](Cc1c[nH]cn1)NC(=O)[C@H](Cc1ccc(O)cc1)NC(=O)[C@H](CCCNC(=N)N)NC(=O)[C@H](Cc1ccc(O)cc1)NC(=O)[C@H](CCCCN)NC(=O)[C@H](CCCCN)NC(=O)c1ccc(CN/C(=N/C(=O)c2ccccc2)Nc2ccc(Br)cc2)cc1)C(=O)N[C@@H](CCCCN)C(=O)N1CCC[C@H]1C(=O)N[C@@H](Cc1ccccc1)C(=O)NCCCC[C@H](NC(=O)[C@H](Cc1ccccc1)NC(=O)[C@@H]1CCCN1C(=O)[C@H](CCCCN)NC(=O)[C@H](CC(C)C)NC(=O)[C@H](Cc1c[nH]cn1)NC(=O)[C@H](Cc1ccc(O)cc1)NC(=O)[C@H](CCCNC(=N)N)NC(=O)[C@H](Cc1ccc(O)cc1)NC(=O)[C@H](CCCCN)NC(=O)[C@H](CCCCN)NC(=O)c1ccc(CN/C(=N/C(=O)c2ccccc2)Nc2ccc(Br)cc2)cc1)C(N)=O,Leishmania amazonensis,"intracellular amastigote growth, Giemsa staining",infected macrophages,24 h,,IC50,2.25 ± 0.35 µM
N=C(N)NCCC[C@H](NC(=O)[C@H](Cc1ccccc1)NC(=O)[C@H](Cc1ccc(O)cc1)NC(=O)[C@H](Cc1c[nH]c2ccccc12)NC(=O)[C@@H](N)CCCCN)C(=O)N[C@@H](Cc1c[nH]c2ccccc12)C(=O)O,"Xanthomonas citri, Burkholderia, Pseudomonas syringae",,,"100 µg/mL, summed over five organisms",direction not given,antimicrobial spectrum score,< 14
CCCCCCCCCC(=O)NCC(=O)N[C@@H](CC(C)C)C(=O)N[C@@H](CC(C)C)C(=O)N[C@@H](CCCCN)C(=O)N[C@@H](CCCNC(=N)N)C(=O)N[C@H](C(=O)N[C@@H](CCCCN)C(=O)N[C@H](C(=O)N[C@@H](CC(C)C)C(=O)N[C@@H](CC(C)C)C(=O)NCCCC[C@H](NC(=O)[C@H](CC(C)C)NC(=O)[C@H](CC(C)C)NC(=O)[C@@H](NC(=O)[C@H](CCCCN)NC(=O)[C@@H](NC(=O)[C@H](CCCNC(=N)N)NC(=O)[C@H](CCCCN)NC(=O)[C@H](CC(C)C)NC(=O)[C@H](CC(C)C)NC(=O)CNC(=O)CCCCCCCCC)[C@@H](C)CC)[C@@H](C)O)C(N)=O)[C@@H](C)O)[C@@H](C)CC,five bacterial species,bacterial growth,,,,geometric mean MIC,169 µM
CCC(=C(c1ccc(Cl)cc1)c1ccc(OCCCN(C)C)cc1)c1ccc(OC)cc1,influenza A virus H1N1,"cytopathic effect, visual CPE",MDCK,,,EC50,> 3.2 µg/mL
O=C(NC12CC3CC(CC(C3)C1)C2)N1CCCC2=CC3CC(CN4CCCCC34)C21 (stereo not shown),vesicular stomatitis virus,pseudovirus entry,,VSV G pseudovirus,,EC50,107 µM
CCCCCCCC(=O)NCC(=O)N[C@@H](CC(C)C)C(=O)N[C@@H](CC(C)C)C(=O)N[C@@H](CCCCN)C(=O)N[C@@H](CCCNC(=N)N)C(=O)N[C@H](C(=O)N[C@@H](CCCCN)C(=O)N[C@H](C(=O)N[C@@H](CC(C)C)C(=O)N[C@@H](CC(C)C)C(N)=O)[C@@H](C)O)[C@@H](C)CC,five bacterial species,bacterial growth,,,,geometric mean MIC,10.6 µM
Fc1ccc(-c2ccc(Cn3ccnc3)c(F)c2)c(F)c1,Mycobacterium tuberculosis variant bovis BCG,microbial growth,BCG,,,MIC50,1.2 µg/mL
Clc1cc(Cl)cc(CCCN2CCCC3=CC4CC(CN5CCCCC45)C32)c1 (stereo not shown),vesicular stomatitis virus,pseudovirus entry,,VSV G pseudovirus,,EC50,6.9 µM
Cc1cccc(-c2nc(Nc3ccncn3)c3sccc3n2)n1,Moraxella catarrhalis,"microbial growth, broth dilution",1502,,,MIC,1 µM
CCCC(=O)NCC(=O)N[C@@H](CC(C)C)C(=O)N[C@@H](CC(C)C)C(=O)N[C@@H](CCCCN)C(=O)N[C@@H](CCCNC(=N)N)C(=O)N[C@H](C(=O)N[C@@H](CCCCN)C(=O)N[C@H](C(=O)N[C@@H](CC(C)C)C(=O)N[C@@H](CC(C)C)C(=O)NCCCC[C@H](NC(=O)[C@H](CCCCNC(=O)[C@H](CC(C)C)NC(=O)[C@H](CC(C)C)NC(=O)[C@@H](NC(=O)[C@H](CCCCN)NC(=O)[C@@H](NC(=O)[C@H](CCCNC(=N)N)NC(=O)[C@H](CCCCN)NC(=O)[C@H](CC(C)C)NC(=O)[C@H](CC(C)C)NC(=O)CNC(=O)CCC)[C@@H](C)CC)[C@@H](C)O)NC(=O)[C@H](CC(C)C)NC(=O)[C@H](CC(C)C)NC(=O)[C@@H](NC(=O)[C@H](CCCCN)NC(=O)[C@@H](NC(=O)[C@H](CCCNC(=N)N)NC(=O)[C@H](CCCCN)NC(=O)[C@H](CC(C)C)NC(=O)[C@H](CC(C)C)NC(=O)CNC(=O)CCC)[C@@H](C)CC)[C@@H](C)O)C(N)=O)[C@@H](C)O)[C@@H](C)CC,five bacterial species,bacterial growth,,,,geometric mean MIC,3.48 µM
O=C(CN1CCCC2=CC3CC(CN4CCCCC34)C21)Nc1cc(Br)ccc1Br (stereo not shown),vesicular stomatitis virus,pseudovirus entry,,VSV G pseudovirus,,EC50,40.3 µM
COc1ccc(CC(C)=C(c2ccc(Cl)cc2)c2ccc(OCCN3CCCCCC3)cc2)cc1,influenza A virus H1N1,"cytopathic effect, visual CPE",MDCK,,,EC50,> 3.7 µg/mL
COc1ccc(CCNc2cc(-c3ccccc3)nc3ncnn23)cc1,Mycobacterium tuberculosis variant bovis BCG,microbial growth,"THP-1, BCG",intracellular,,MIC,> 10 µM
C[C@@](O)(C(F)F)[C@H](NC(=O)c1ccc(C#CC#CC2CC2)cc1)C(=O)NO,Yersinia,,,,,MIC90,0.125 µg/mL
Cc1cc(Oc2nc(N3CC[C@@H](c4ccncc4)C3)ncc2F)[nH]n1,Mycobacterium tuberculosis,microbial growth,H37RV,,,MIC90,0.0086 µM
CCC(=C(c1ccc(Cl)cc1)c1ccc(OCCN(C)C)cc1)c1ccc(Cl)cc1,influenza A virus H1N1,"cytopathic effect, visual CPE",MDCK,,,EC50,0.72 µg/mL
CN(C(=O)CN1CCCC2=CC3CC(CN4CCCCC34)C21)c1ccc(Br)cc1 (stereo not shown),vesicular stomatitis virus,pseudovirus entry,,VSV G pseudovirus,,EC50,153 µM
CC(C)C[C@H](NC(=O)[C@H](CC(N)=O)NC(=O)[C@H](CCCCN)NC(=O)[C@H](CC(C)C)NC(=O)[C@H](Cc1ccccc1)NC(=O)CNC(=O)[C@H](CC(C)C)NC(=O)[C@@H](N)Cc1ccccc1)C(=O)N[C@@H](Cc1ccccc1)C(N)=O,hepatitis C virus,,"Huh-7.5.1, JFH-1","concentration not given, added after infection, together with: 50 µM chloroquine",relative to: chloroquine alone,HCV RNA reduction,30%
CC(=C(c1ccc(Cl)cc1)c1ccc(OCCN2CCCCC2)cc1)c1ccc(Cl)cc1,influenza A virus H1N1,"cytopathic effect, visual CPE",MDCK,,,EC50,> 63 µg/mL
CCCCCCCCCC(=O)OCC1OC(n2cc(C)c(=O)[nH]c2=O)CC1N(C)C (stereo not shown),vesicular stomatitis virus,viral replication,HEL,,,EC50,> 0.23 µM
CNc1nc(SC)nc2ccccc12,Mycobacterium tuberculosis variant bovis BCG,microbial growth,"THP-1, BCG",intracellular,,MIC,> 10 µM
Cc1ccccc1CN1CCCC2=CC3CC(CN4CCCCC34)C21 (stereo not shown),vesicular stomatitis virus,pseudovirus entry,,VSV G pseudovirus,,EC50,25.4 µM
CCC(=C(c1ccc(Cl)cc1)c1ccc(OCCN2CCCCCC2)cc1)c1ccccc1,influenza A virus H1N1,"cytopathic effect, visual CPE",MDCK,,,EC50,> 2.4 µg/mL
O=C(CNc1ccc(I)cc1)N1CCCC2=CC3CC(CN4CCCCC34)C21 (stereo not shown),vesicular stomatitis virus,pseudovirus entry,,VSV G pseudovirus,,EC50,50.2 µM
C(=C\c1ccc(-c2ccccc2)cc1)/Cn1ccnc1,Mycobacterium tuberculosis variant bovis BCG,microbial growth,BCG,,,MIC50,0.7 µg/mL
Cc1ccc2nc(C)c(C(=O)NCc3cccs3)n2c1,Moraxella catarrhalis,"microbial growth, broth dilution",1502,,,MIC,> 64 µM
CC(=C(c1ccc(Cl)cc1)c1ccc(OCCN2CCOCC2)cc1)c1ccc(Cl)cc1,influenza A virus H1N1,"cytopathic effect, visual CPE",MDCK,,,EC50,> 7.1 µg/mL
CCCCCCCCCC(=O)NCC(=O)N[C@@H](CC(C)C)C(=O)N[C@@H](CC(C)C)C(=O)N[C@@H](CCCCN)C(=O)N[C@@H](CCCNC(=N)N)C(=O)N[C@H](C(=O)N[C@@H](CCCCN)C(=O)N[C@H](C(=O)N[C@@H](CC(C)C)C(=O)N[C@@H](CC(C)C)C(N)=O)[C@@H](C)O)[C@@H](C)CC,five bacterial species,bacterial growth,,,,geometric mean MIC,10.6 µM
CCC(=C(c1ccc(Cl)cc1)c1ccc(OCCN(CC)CC)cc1)c1ccc(Cl)cc1,influenza A virus H1N1,"cytopathic effect, visual CPE",MDCK,,,EC50,> 12 µg/mL
COc1cccc(CN2CCCC3=CC4CC(CN5CCCCC45)C32)c1 (stereo not shown),vesicular stomatitis virus,pseudovirus entry,,VSV G pseudovirus,,EC50,15.9 µM
COc1ccc2nc(C)cc(OCC(=O)Nc3ccccc3OC)c2c1,Mycobacterium tuberculosis variant bovis BCG,microbial growth,BCG,,,MIC,1.4 µM
CCCCCC(=O)NCC(=O)N[C@@H](CC(C)C)C(=O)N[C@@H](CC(C)C)C(=O)N[C@@H](CCCCN)C(=O)N[C@@H](CCCNC(=N)N)C(=O)N[C@H](C(=O)N[C@@H](CCCCN)C(=O)N[C@H](C(=O)N[C@@H](CC(C)C)C(=O)N[C@@H](CC(C)C)C(N)=O)[C@@H](C)O)[C@@H](C)CC,five bacterial species,bacterial growth,,,,geometric mean MIC,48.5 µM

# A few entries again:
Structure (SMILES),organism,test,system,setting,how to read,measurement,result
Cc1cc(Oc2nc(N3CC[C@@H](c4ccncc4)C3)ncc2F)[nH]n1,Mycobacterium tuberculosis,microbial growth,H37RV,,,MIC90,0.0086 µM
CCC(=C(c1ccc(Cl)cc1)c1ccc(OCCN(C)C)cc1)c1ccc(Cl)cc1,influenza A virus H1N1,"cytopathic effect, visual CPE",MDCK,,,EC50,0.72 µg/mL
CN(C(=O)CN1CCCC2=CC3CC(CN4CCCCC34)C21)c1ccc(Br)cc1 (stereo not shown),vesicular stomatitis virus,pseudovirus entry,,VSV G pseudovirus,,EC50,153 µM
CC(C)C[C@H](NC(=O)[C@H](CC(N)=O)NC(=O)[C@H](CCCCN)NC(=O)[C@H](CC(C)C)NC(=O)[C@H](Cc1ccccc1)NC(=O)CNC(=O)[C@H](CC(C)C)NC(=O)[C@@H](N)Cc1ccccc1)C(=O)N[C@@H](Cc1ccccc1)C(N)=O,hepatitis C virus,,"Huh-7.5.1, JFH-1","concentration not given, added after infection, together with: 50 µM chloroquine",relative to: chloroquine alone,HCV RNA reduction,30%
CC(=C(c1ccc(Cl)cc1)c1ccc(OCCN2CCCCC2)cc1)c1ccc(Cl)cc1,influenza A virus H1N1,"cytopathic effect, visual CPE",MDCK,,,EC50,> 63 µg/mL
